# Experimental data gathered from unrelated publications.
# Every numbered part comes from another study and shows a few of its results, in no order.

# Study 1
# Target: Interferon regulatory factor 7, full length, phosphomimetic (IRF7, Homo sapiens, UniProt Q92985, residues 1-503, S101K/S471D/S472D/S475D/S476D/S477D/S483D/S484D/S487D)
# Method: protein-binding microarray
# Form: double-stranded DNA, one strand shown
# Sample: in vitro
# Concentration: 250 nM
# Notes: 60-bp whole probe
# Together with: salmon DNA 0.4 mg/ml
# Baseline: random background probes
# Direction: higher = stronger binding
# Shared flanks, not repeated: GCCTAGCAC … GTCTTGATTCGCTTGACGCTGCTG
# Residues (chain): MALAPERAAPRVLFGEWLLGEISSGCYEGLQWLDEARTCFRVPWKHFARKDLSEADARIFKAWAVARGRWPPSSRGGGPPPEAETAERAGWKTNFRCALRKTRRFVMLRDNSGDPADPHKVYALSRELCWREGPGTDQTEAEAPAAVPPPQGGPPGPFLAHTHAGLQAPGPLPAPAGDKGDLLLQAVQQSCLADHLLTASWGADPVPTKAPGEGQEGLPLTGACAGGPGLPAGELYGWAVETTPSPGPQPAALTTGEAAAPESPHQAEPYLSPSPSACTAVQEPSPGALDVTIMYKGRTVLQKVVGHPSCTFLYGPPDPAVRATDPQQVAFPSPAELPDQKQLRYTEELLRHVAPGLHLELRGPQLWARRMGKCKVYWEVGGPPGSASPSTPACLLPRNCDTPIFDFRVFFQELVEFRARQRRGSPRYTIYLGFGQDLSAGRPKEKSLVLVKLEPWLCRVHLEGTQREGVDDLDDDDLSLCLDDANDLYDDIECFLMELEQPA
Strand,log fluorescence [z-score]
TTAGGTCTCCTTCTCCGTTAGTGCTAG,0.386
GACGATTTAAGTTTCGAGACGTGCTAG,4.17
CAACCTATAGGTTCAACGACGTGCTAG,0.188
GACGCTATCGACACTGGGGACGTGCTA,0.201
TCAAATCCCACATTTGATACTGTGCTA,0.47
TTAGGTATCCTTATCCTTCAGTGCTAG,0.399
GCCGGTATCCTTATCCTGACGTGCTAG,0.393
CGAGGTCTCGCTATGTTGTCGTGCTAG,0.845
TTAGCTTTCGGGACTGGGTTAGTGCTA,0.309
TGGGTCTTGGTTCTCAGCTTGTGCTAG,0.615
GACGGACTGTGTATCGGGACGTGCTAG,-0.484
TCAAATTTTTTTTCTAAACTGTGCTAG,0.268
GACGGATTCCTTTCCCTGACGTGCTAG,1.19
TACGGTTTCGACTTTCGGGACGTGCTA,11
TTCATTTTCTGAATGTCCTCGTGCTAG,1.42
GACGAACGGAGACTGGAGACGTGCTAG,-0.201
TTAGGTATCCTTATCGTTTAGTGCTAG,0.631
GACGGTCTCGGTATCGTGACGTGCTAG,1.6
TTAGATTTCGGTTTCGGTTAGTGCTAG,11.3

# Study 2
# Target: Histone acetyltransferase KAT6A, winged helix 2, GST fusion (KAT6A, Homo sapiens, UniProt Q92794, residues 85-181)
# Method: protein binding microarray
# Form: double-stranded DNA, one strand shown
# Sample: in vitro
# Concentration: not given
# Notes: 8-mer, flanks averaged, mean of 2 arrays, mostly near background
# Baseline: not given
# Direction: higher = stronger binding
# Construct (chain): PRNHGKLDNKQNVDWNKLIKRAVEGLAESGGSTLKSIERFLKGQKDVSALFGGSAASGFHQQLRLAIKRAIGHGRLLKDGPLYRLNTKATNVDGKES
Strand,E-score
GGTTTCAC,-0.0449
GTTAGGAA,-0.0965
GCACCGCA,0.132
ACCGGCCG,0.246
CGAAGGAG,-0.0621
CGCTGCCA,0.0744
AGTAAATA,0.0365
CGAGCCTA,0.00677
ATGCGCAG,0.0171
CAGCCCGC,0.0943
GCTCACGA,0.0552
CTCTGTAC,-0.099
AACACTCC,-0.0947
ACGTAAAG,-0.234
CGGCCTAG,-0.00228
CACATGTC,-0.104

# Study 3
# Target: RNA binding protein fox-1 homolog 2, RRM domain, GST-SBP tag (RBFOX2, Homo sapiens, UniProt O43251-10, residues 100-194)
# Method: RNA Bind-n-Seq
# Form: RNA
# Sample: in vitro
# Concentration: 365 nM
# Notes: natural RNA segment, single round, ends assumed
# Baseline: no-protein control
# Direction: higher = stronger binding
# Shared flanks, not repeated: GGGAGUUCUACAGUCCGACGAUC … UGGAAUUCUCGGGUGCCAA
# Residues (chain): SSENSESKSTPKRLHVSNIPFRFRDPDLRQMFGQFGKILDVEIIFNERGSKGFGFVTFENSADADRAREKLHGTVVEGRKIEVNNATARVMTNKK
Strand,RBNS enrichment (R)
CAUUUUUAUUGUAAUUUUAGCCUUAGCGUGUGGGGGUUUAUCCCUUUUUGUUAGCUGUGUACAGAAUGUGUAUCCUAUCUCCUCCCCUCCUUGGCUAAUCAUUGGCAGGG,0.727
UCCAGGGCAACUCUAGCAUCAGAGCAAAAGCCUUGGGUUUCUCGCAUUCAGUGGCCUAUCUCCAGAUUGUCUGAUUUCUGAAUGUAAAGUUGUUGUGUUUUUUUUUAAAU,2.1
ACACCCCUCCCCGCACUGUGAAGUUCCCCUGACCGCCCUCCUGGUUCACAAAGAGCAUUAAGAAAGCUGCGGUGGUCUGAGCAACAUAGCCCAAAGGGCUGAGCCUCCUG,0.474
UCAUGUACCCAGUGUUAACUCUUUGUUGUUGUCCCUUUCAAAUAUGGAUAACUCUGUGAACAGUCUUGACUUUUUGUAUCAUGAGACAGAGUGCCUAAGAGAAACCCUUG,0.207
AACCAGGCCCUGAUGUAGGGGUCGUCCGCUCAGGCUGCCCCCUUGGGCUCUUGCAGCUCUUGUUCAGGUAGUCGCCCUUCUGGUUUGUUCUCUGUGGGGCAGUUGGUGGG,0.368
GAUCAUGUGUGCAGAUGUCCUGUGAGGAGGGAGCAUAAAGCACUGUGAAAAUGUAGCAUGCUGUCUAUGUGGACGCCCUAGGAUGAGUGAUGUGAAACGCUGCACUACUG,21.9
ACUCACAUUCCUCAUUCCUAAGAAUUUGGAGCUAGCUGUUUGCCUUUGACUCCCUGACUUCAAGCCAGGGUUGUGCCUUACUGUCCCUUUUCUGGGCCUCAUUCUGCCAA,0.173
UGAUGUGACAUAAUAGAUGUGAAUGUUAAUCACUGCUUGACUAUGUUAAUAAAGUUGUUUAACUAUAGAUGUUGCACUCUGAUUUUUAAUGAAAGGAAAUGAGUUUUCUU,0.784

# Study 4
# Target: Phosphate system positive regulatory protein PHO4, full length, GST-tagged (PHO4, Saccharomyces cerevisiae, UniProt P07270, residues 1-312)
# Method: competition protein-binding microarray
# Form: double-stranded DNA, one strand shown
# Sample: in vitro
# Concentration: 2 µM
# Notes: whole 60-bp probe, lowest competitor level
# Together with: Cbf1 competitor, 0.05 µM
# Direction: higher = stronger binding
# Shared flanks, not repeated: … GTCTTGATTCGCTTGACGCTGCTG
# Target sequence (chain): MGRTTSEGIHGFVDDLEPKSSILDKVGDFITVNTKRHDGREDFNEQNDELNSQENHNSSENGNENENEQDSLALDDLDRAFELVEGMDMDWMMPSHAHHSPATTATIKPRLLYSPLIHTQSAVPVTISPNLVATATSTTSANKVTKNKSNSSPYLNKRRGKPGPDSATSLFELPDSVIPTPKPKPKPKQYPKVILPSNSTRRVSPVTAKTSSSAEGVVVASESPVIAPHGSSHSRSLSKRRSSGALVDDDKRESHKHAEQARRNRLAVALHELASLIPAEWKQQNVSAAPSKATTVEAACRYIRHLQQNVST
Strand,fluorescence intensity
CGTCCTAGTGATTTTCACGTGGAGTCCATGAGGAAG,13500 a.u.
TGCGCAACAACTTGTGGTGTGGGTGTATGTCTAGAA,6410 a.u.
CGGGGTTAAGTTTGTGTGGTGGGTGGCTTGCAGCAG,4990 a.u.
AAATTACTAAGTTGATTAGTGGGTGACGCCGTATGA,3790 a.u.
TTTAGTGCGAACGCCTACGTGTCCTGTTAACTTATC,6460 a.u.
GCACTTAAGGTAAGGCGCATGATGTACCTGTTTTAT,6730 a.u.
TGCGCAACAACTTGGATGGTGGGTGTATGTCTAGAA,5050 a.u.
TGCACTTATTATTACTACGTGGTGAATTTTCTCTTT,7180 a.u.
GCCCGATCCTTTGGACACGTGCCGACAGGACTACTC,15800 a.u.
CGTCCTAGTGATTTTCACGTGAAGTCCATGAGGAAG,9010 a.u.
CGTCCTAGTGATTTTCACGTGCTGTCCATGAGGAAG,17000 a.u.
CGCCCCCCAGCTCGGCACGCTGGTCAACACAGGCTG,5830 a.u.
TGGCAGTAACACCGTCACGCTTTTCATGTTTATGGC,6310 a.u.
CGTCCTAGTGATTGGACAGTGGGTGCCATGAGGAAG,5770 a.u.
TATCGTCATATAAAAAACGTGCAAAGTATATGTAAC,14800 a.u.
TCATGTTCCTGACAGGGCGTGATGGACTTTACTATT,5840 a.u.
TTACCGACGAGGCTTACCGTGATTGCTCTCCAGTAG,3750 a.u.
AACCAGCATTATTTGCACGCAAGGCCCATTGAAAAG,5720 a.u.
